Measurements collected from several papers.
Lines come from different studies, so protocols differ. “And” joins repeats or separate records; there may be more than shown. ± gives the spread as reported.

For `CN(C)CCCn1c(=O)c2cc(Br)c3c(=O)n(CCCN(C)C)c(=O)c4c5[nH]c6ccccc6[nH]c5c(c1=O)c2c34`, the ΔTm was 10.3 ± 1.1 °C (HIV-1 LTR-IV G-quadruplex; FRET melting; 0.25 µM, K+ 100 mM).
With `C=C(C)Cn1c(SCC(=O)c2cccs2)nc2sc3ccccc3c2c1=O` the EC50 was greater than 20 µM (Smoothened; Gli luciferase reporter, agonist; TM3-Gli-Luc; together with: SAG 20 nM).
`CCCCCCCC(=O)OC[C@H](COP(=O)(O)O[C@@H]1[C@H](O)[C@H](O)[C@@H](OP(=O)(O)O)[C@H](OP(=O)(O)O)[C@H]1O)OC(=O)CCCCCCC`: “efficacy factor E1” 1.07 (Kv7.2/Kv7.3(EEE) mutant channel; channel open probability, activator, fitted PIP2 binding model; model 4, K3 constrained; relative to: channel without bound PIP2).
For `CC(=O)N(C)[C@H]1CCN(C(=O)c2cnc3c(c2)C[C@](C)(c2ccc(F)cc2)N3)C1`, the pantetheine increase was 1350% (vanin activity; LC-MS/MS; human, plasma; 60 mg, 4 h post-dose, median; relative to: baseline).
For `O=S(=O)(NCCNC/C=C/c1ccc(Br)cc1)c1cccc2cnccc12`, “embryos at morula stage” read 0% (PKA; inhibitor; mouse zygotes; 20 µM, injection, hCG, 48 h post, early embryonic development).
`c1coc(-c2n[nH]cc2-c2ccnc3ccccc23)c1`: “log2 fold change” 0.03 (CDC5 (Candida albicans); kinase binding, MIB/MS competition; Candida albicans lysate; 10 µM; relative to: DMSO).
For `CC[C@H](C)[C@H](NC(=O)[C@H](CC(=O)O)NC(=O)[C@H](CCC(=O)O)NC(=O)[C@@H](N)CC(N)=O)C(=O)N[C@@H](CC(=O)O)C(=O)N[C@@H](CCC(N)=O)C(=O)N[C@@H](CCSC)C(=O)N[C@@H](Cc1ccccc1)C(=O)N[C@@H](CO)C(=O)N[C@H](C(=O)N[C@@H](CC(C)C)C(=O)N[C@@H](CC(C)C)C(=O)NCC(=O)N[C@@H](CCC(=O)O)C(=O)N[C@@H](CCSC)C(=O)N[C@@H](CC(=O)O)C(=O)N[C@@H](CC(C)C)C(=O)N[C@@H](CC(C)C)C(=O)N[C@H](C(=O)N[C@@H](CCC(N)=O)C(=O)N[C@@H](CO)C(=O)O)[C@@H](C)O)[C@@H](C)O`, inhibition read “no inhibition” (integrin αIIbβ3 THD-W359A; integrin activation, PAC-1 binding flow cytometry; CHO-A5 expressing αIIbβ3 THD-W359A; up to 100 µM, 30 min, 37 °C).
`Cc1ccc(C(=O)Nc2ccc3ccccc3c2)o1` gave an inhibition of 10% and 8.36% and 12.8% and 4.8% and 3.6% (Kv7.1 potassium channel human; ion current, inhibitor, whole-cell patch clamp; 10 µM).
`CN(C)CCCn1c(=O)c2cc(Br)c3c(=O)n(CCCN(C)C)c(=O)c4c5[nH]c6ccc(C(=O)O)cc6[nH]c5c(c1=O)c2c34` gave a ΔTm of 4.7 ± 0.6 °C (HIV-1 LTR-IV G-quadruplex; FRET melting; 0.25 µM, K+ 100 mM).
`COc1ccc(CNc2c(CO)cnc3c(C4CC4)cc(C#N)cc23)cn1` gave an IC50 of greater than 10 µM (PDE7; inhibitor).
The EC50 of `CCCCCCC(C(C)O)n1cnc2c(N)ncnc21` (stereo not drawn) is reported as greater than 1000 µM (anti-cAMP antibody; binding, cAMP EIA, acetylated).
`CCN(CC)CCCC(C)Nc1cnc(C(=O)Nc2ccc(Cl)c3cccnc23)cn1` (stereo not drawn) — result for “lowest concentration raising LC3B”: 2.5 µM (LC3B; Western blot; human cells; 72 h).
`COc1ccccc1N1CCN(C(=O)c2cccc(S(=O)(=O)n3cncn3)c2)CC1`: activity “inactive” (AKR1C1, AKR1C2, AKR1C4 (human); enzyme activity, competitive ABPP; HEK-293T; concentration not given, 5-120 min).
For `C=C(C)Cn1c(SCC(=O)c2nccs2)nc2sc3c(c2c1=O)CCCC3`, the EC50 was greater than 20 µM (Smoothened; Gli luciferase reporter, agonist; TM3-Gli-Luc; together with: SAG 20 nM).
`Oc1ccccc1-c1n[nH]cc1-c1ccnc2ccccc12` — result for “log2 fold change”: 0.17 (orf19.4575 Candida albicans; kinase binding, MIB/MS competition; Candida albicans lysate; 10 µM; relative to: DMSO).
For `CC(=O)N[C@H](C(=O)N1C[C@H](O)C[C@H]1C(=O)NCc1ccc(-c2scnc2C)cc1)C(C)(C)SCCCCCCNC(=O)C[C@@H]1N=C(c2ccc(Cl)cc2)c2c(sc(C)c2C)-n2c(C)nnc21`, “relative protein abundance” read 1.04 (AHNAK (human); TMT proteomics; HeLa; 1 µM, 24 h; relative to: DMSO).
`CN(C)CCCn1c(=O)c2ccc3c(=O)n(CCCN(C)C)c(=O)c4c5[nH]c6ccccc6[nH]c5c(c1=O)c2c34` gave a ΔTm of 11.7 ± 0.6 °C (HIV-1 LTR-IV G-quadruplex; FRET melting; 0.25 µM, K+ 100 mM).
The EC50 of `FC(F)(F)CN1CC(n2cc(Oc3ccn4nc(Cl)cc4n3)cn2)C1` is reported as 0.052 µM (ELOVL1 (human); C26:0/C22:0 SM ratio reduction, mass spectrometry; patient fibroblasts; 72 h).
With `CN(C)CCCNc1cc2c(=O)n(CCCN(C)C)c(=O)c3c4[nH]c5ccccc5[nH]c4c4c(=O)n(CCCN(C)C)c(=O)c1c4c23` the ΔTm was 3 ± 1 °C (HIV-1 LTR-IV G-quadruplex; FRET melting; 0.25 µM, K+ 100 mM).
Under “phospho-Met/total Met ratio”, `CSc1cc(Oc2ccnc3[nH]c(=O)cnc23)ccc1NC(=O)Nc1cc(C(C)(C)C)nn1-c1ccccc1` is recorded as 0.78 (Met; reverse-phase protein array; patient-derived cell; 1 µM, 4 h; relative to: DMSO).
With `O=C(NN=Cc1ccc(C[n+]2ccccc2)cc1)c1ccc2ccc3ccc(C(=O)NN=Cc4ccc(C[n+]5ccccc5)cc4)nc3c2n1.[Br-].[Br-]` the delta Tm was 1.4 °C (telomeric antiparallel G-quadruplex DNA; UV melting; 3 µM, 10 mM potassium, together with: DNA 3 µM).
Under “cells with nuclear reporter”, `CC(Nc1nc(N2CCCC2)nc2ccccc12)c1ccccc1` (stereo not drawn) is recorded as 98.7% and 95.6% (importin α/β1; cMyc nuclear import, high content imaging; HeLa Kyoto reporter; 31.65 µM, 2 h).
`CN(C(=O)n1cnc(-c2ccc[n+]([O-])c2)c1)C1CCCCC1` gave an inhibition of 9.65% (Ca2+-activated potassium channel; concentration not given).
With `CC1=C(C#N)[C@@H](c2ccc(C#N)cc2S(C)(=O)=O)N(C)C(=O)N1c1cccc(C(F)(F)F)c1` the IC50 was greater than 30 µM (chymotrypsin).
`CC(C)C[C@@H]1NC(=O)[C@H](C(C)C)NC(=O)CNC(=O)[C@H](CC(N)=O)NC(=O)[C@@H]2CCCN2C(=O)[C@H](Cc2ccc(O)cc2)NC(=O)[C@H](CCCNC(=N)N)NC(=O)[C@H](Cc2ccccc2)NC(=O)[C@@H](NC(=O)[C@H](CCCCN)NC(=O)[C@H](C)NC(=O)[C@H](CO)NC(=O)[C@H](C)NC(=O)[C@@H](N)Cc2ccc(O)cc2)CSSC[C@@H](C(=O)N[C@H](C(N)=O)[C@@H](C)O)NC(=O)[C@H](C)NC1=O` gave a -ΔG of 8.68 kcal/mol (fucoidan; binding, isothermal titration calorimetry; pH 7.0, 25 °C).
Under inhibition, `CCOc1ccc(C(C)(CC(=O)O)C(=O)O)cc1` (stereo not drawn) is recorded as “inhibited” (human AA3; 20 µM).
`C[N+](C)(C)CCCn1c(=O)c2ccc3c(=O)n(CCC[N+](C)(C)C)c(=O)c4c5[nH]c6ccccc6[nH]c5c(c1=O)c2c34.[I-].[I-]` gave a ΔTm of 16 ± 1.7 °C (HIV-1 LTR-IV G-quadruplex; FRET melting; 0.25 µM, K+ 100 mM).
For `O=C(Nc1ccccc1OS(=O)(=O)c1ccc(F)cc1)c1ccc2ncccc2c1`, “activity at other P2 receptors” read “inactive” (P2Y1, P2Y2, P2Y4, P2Y6, P2X2, P2X4 receptors; 100 µM).
For `C[n+]1cccc2cc(C=NNC(=O)c3ccc4ccc5ccc(C(=O)NN=Cc6ccc7c(ccc[n+]7C)c6)nc5c4n3)ccc21.[I-].[I-]`, the delta Tm was 6.7 °C (MYC promoter parallel G-quadruplex DNA; UV melting; 3 µM, 10 mM potassium, together with: DNA 3 µM).
For `C=C(C)Cn1c(SCC(=O)c2cccs2)nc2ccccc2c1=O`, the EC50 was greater than 20 µM (Smoothened; Gli luciferase reporter, agonist; TM3-Gli-Luc; together with: SAG 20 nM).
With `CC(C)C[C@H](N)C(=O)O` the Ka was 4.48e+10 M⁻¹ and 3.48e+10 M⁻¹ (SAR11_1346 protein (Candidatus Pelagibacter sp.); binding, competition isothermal titration calorimetry; together with: serine 5 mM competitor).
`Nc1nc2c(nc(Br)n2[C@@H]2O[C@@H]3COP(=O)(O)O[C@H]3[C@H]2O)c(=O)[nH]1` has an EC50 of greater than 10 µM (anti-cAMP antibody; binding, cAMP EIA, acetylated).
`CCCCCNC(=N)N` gave an IC50 of roughly 500 µM (voltage-gated sodium channel, squid; peak sodium current, blocker, voltage clamp, internal perfusion; Doryteuthis pealeii, giant axon; 8-10 °C, intact inactivation, +100 mV, internal).
